Assay results from different studies.
Each numbered part is a random draw from the data of one study; scales do not carry over between parts. Several values in a cell are separate wells, animals, samples, runs or records.
Sequence of UniProt Q15303 (whole entry, looked up): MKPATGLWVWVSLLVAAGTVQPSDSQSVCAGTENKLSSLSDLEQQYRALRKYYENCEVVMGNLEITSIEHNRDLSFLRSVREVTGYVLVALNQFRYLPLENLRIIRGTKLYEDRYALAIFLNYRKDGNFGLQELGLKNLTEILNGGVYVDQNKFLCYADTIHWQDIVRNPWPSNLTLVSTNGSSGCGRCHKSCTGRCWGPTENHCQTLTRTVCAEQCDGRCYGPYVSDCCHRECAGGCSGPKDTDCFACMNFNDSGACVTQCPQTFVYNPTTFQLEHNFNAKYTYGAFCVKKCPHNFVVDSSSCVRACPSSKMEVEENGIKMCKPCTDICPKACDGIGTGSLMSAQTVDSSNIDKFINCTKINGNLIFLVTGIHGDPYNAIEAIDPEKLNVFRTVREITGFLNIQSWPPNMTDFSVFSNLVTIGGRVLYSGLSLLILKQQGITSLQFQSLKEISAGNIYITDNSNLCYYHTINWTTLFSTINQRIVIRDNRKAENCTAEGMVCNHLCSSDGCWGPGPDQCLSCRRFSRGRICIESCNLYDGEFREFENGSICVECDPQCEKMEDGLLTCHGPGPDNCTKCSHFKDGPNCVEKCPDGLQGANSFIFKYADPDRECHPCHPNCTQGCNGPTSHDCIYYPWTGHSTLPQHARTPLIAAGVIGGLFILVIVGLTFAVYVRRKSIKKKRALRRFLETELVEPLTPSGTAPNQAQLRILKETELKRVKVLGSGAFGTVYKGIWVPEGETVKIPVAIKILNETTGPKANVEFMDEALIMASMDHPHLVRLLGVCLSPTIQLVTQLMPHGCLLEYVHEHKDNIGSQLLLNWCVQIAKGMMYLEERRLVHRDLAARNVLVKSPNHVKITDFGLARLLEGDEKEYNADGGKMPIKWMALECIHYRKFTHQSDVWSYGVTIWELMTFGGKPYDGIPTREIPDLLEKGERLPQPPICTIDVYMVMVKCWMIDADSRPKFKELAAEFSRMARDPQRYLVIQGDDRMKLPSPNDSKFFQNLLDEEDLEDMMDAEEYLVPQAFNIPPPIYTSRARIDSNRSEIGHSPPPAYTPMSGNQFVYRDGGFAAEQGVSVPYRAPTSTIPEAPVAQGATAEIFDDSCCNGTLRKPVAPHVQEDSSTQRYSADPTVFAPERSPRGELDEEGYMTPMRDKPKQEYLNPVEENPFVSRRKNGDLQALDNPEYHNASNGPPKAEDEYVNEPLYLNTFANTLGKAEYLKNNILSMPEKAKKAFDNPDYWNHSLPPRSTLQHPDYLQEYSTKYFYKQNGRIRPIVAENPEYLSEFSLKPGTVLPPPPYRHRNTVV
Sequence of UniProt O43293 (whole entry, looked up): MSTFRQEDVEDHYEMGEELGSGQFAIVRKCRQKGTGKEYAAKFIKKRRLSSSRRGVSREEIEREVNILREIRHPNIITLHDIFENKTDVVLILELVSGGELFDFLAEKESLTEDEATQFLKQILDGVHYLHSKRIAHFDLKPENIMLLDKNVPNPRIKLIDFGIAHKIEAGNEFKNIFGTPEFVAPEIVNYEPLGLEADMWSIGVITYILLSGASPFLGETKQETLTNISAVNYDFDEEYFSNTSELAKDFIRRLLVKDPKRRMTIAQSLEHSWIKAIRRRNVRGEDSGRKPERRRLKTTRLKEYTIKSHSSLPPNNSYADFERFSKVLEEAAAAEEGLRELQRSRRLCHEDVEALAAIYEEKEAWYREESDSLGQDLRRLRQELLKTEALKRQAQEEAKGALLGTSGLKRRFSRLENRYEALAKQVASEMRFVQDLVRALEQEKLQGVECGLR

Set 1 — observed: enzyme activity; mode: inhibitor; tested at: 77 µM; relative to: untreated; endpoint: remaining activity
Target: DNA polymerase theta, ATPase domain (POLQ, Homo sapiens, UniProt O75417)
Sequence of UniProt O75417 (whole entry, unmodified, looked up): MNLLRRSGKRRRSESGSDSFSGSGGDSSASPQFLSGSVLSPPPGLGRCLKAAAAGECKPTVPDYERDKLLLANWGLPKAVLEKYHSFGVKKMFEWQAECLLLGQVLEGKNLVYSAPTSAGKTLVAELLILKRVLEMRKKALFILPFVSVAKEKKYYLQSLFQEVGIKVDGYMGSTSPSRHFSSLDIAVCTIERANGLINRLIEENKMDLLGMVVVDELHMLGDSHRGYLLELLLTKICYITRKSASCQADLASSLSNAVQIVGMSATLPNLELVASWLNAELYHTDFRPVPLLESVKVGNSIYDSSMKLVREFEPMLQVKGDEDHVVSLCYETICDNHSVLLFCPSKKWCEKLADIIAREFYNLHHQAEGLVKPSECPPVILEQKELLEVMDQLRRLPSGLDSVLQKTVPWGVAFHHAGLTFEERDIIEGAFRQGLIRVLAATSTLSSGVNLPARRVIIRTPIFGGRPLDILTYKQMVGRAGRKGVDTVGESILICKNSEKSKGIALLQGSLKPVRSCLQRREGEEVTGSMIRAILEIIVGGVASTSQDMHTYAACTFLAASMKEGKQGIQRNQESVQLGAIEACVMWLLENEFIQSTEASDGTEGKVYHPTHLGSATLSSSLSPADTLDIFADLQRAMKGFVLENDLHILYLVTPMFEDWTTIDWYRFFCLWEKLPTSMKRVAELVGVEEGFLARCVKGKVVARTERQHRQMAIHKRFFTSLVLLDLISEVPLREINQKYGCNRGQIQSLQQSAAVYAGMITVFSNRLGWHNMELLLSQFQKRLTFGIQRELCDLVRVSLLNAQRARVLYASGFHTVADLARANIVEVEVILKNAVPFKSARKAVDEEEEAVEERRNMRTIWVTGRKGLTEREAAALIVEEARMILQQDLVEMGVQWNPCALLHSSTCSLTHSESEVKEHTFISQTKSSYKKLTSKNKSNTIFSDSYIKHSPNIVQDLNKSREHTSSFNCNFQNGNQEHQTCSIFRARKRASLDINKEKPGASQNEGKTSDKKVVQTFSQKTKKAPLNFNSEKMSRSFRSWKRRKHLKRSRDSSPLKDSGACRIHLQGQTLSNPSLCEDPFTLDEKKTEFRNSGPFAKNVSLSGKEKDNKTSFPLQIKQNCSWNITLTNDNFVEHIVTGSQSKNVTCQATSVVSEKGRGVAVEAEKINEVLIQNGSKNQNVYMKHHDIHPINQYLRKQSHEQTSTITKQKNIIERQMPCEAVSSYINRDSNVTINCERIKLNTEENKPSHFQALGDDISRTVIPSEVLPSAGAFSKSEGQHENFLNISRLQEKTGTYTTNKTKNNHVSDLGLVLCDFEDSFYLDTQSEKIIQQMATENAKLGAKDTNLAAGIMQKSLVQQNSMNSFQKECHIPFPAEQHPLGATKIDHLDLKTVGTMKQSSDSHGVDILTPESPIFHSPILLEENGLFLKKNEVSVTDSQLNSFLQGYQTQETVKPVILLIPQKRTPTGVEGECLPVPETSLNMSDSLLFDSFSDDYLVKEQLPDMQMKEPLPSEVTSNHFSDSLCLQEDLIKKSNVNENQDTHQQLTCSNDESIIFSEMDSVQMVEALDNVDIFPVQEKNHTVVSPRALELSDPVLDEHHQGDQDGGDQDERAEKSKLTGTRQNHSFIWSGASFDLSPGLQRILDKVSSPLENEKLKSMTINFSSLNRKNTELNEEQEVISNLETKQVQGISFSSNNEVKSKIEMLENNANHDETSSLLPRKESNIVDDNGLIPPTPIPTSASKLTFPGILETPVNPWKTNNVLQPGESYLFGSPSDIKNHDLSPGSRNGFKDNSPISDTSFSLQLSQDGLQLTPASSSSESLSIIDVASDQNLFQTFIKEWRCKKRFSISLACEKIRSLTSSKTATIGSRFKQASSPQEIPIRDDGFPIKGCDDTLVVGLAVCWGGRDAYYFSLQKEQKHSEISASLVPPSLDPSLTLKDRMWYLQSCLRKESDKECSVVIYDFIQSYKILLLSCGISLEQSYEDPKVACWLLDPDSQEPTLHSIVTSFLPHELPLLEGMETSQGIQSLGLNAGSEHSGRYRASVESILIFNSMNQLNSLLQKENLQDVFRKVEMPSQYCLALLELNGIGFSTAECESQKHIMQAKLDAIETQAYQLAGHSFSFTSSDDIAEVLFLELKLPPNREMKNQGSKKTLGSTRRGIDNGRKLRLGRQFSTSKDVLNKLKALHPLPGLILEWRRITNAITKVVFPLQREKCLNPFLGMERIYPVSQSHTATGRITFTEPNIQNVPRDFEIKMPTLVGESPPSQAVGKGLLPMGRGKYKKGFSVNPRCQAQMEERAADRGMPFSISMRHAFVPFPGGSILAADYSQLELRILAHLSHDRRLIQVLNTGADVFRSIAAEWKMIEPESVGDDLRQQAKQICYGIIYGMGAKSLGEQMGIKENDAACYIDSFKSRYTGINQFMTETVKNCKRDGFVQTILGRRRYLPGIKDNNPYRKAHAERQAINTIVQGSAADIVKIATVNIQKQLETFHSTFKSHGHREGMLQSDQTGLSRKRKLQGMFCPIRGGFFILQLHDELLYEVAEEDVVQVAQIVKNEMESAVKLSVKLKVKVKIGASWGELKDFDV
Cc1cccc(N(C)C(=S)Oc2ccc3ccccc3c2)c1: 102% and 100%
O=C(O)CCNC(=O)c1ccccc1: 102%
O=C(O)[C@H]1O[C@@H](Oc2cc3oc(-c4ccccc4)cc(=O)c3c(O)c2O)[C@H](O)[C@@H](O)[C@@H]1O: 93.3%
CC1(C)O[C@@H]2C[C@H]3[C@@H]4C[C@H](F)C5=CC(=O)C=C[C@]5(C)[C@@]4(F)[C@@H](O)C[C@]3(C)[C@]2(C(=O)CO)O1: 96.1%
Clc1ccc2c(c1)N=C(N1CCNCC1)c1ccccc1N2: 109%
CCOC(=O)[C@H](CCc1ccccc1)N[C@H]1CCCN2CCC[C@@H](C(=O)O)N2C1=O: 98.2%

Set 2 — method: competition with immobilised ligand; tested at: 1 µM; endpoint: remaining binding
Compound: CC(=O)C1=C(C)N(c2cccc(C(F)(F)F)c2)C(=O)N[C@@H]1c1ccc(C#N)nc1
MYLK3 (Homo sapiens, UniProt Q32MK0); cell-free assay: 100%
EGFR (Homo sapiens, UniProt P00533, del747-752/P753S); cell-free assay: 80.3%
DAPK3 (Homo sapiens, UniProt O43293); cell-free assay: 83.8%
CDK11A (Homo sapiens, UniProt Q9UQ88); binding: 95.7%
ERBB4 (Homo sapiens, UniProt Q15303); cell-free assay: 90.8%

Set 3 — observed: enzyme activity; mode: inhibitor; tested at: 0.5 µM; relative to: control; endpoint: remaining activity
Target: Serine/threonine-protein kinase PAK 3 (PAK3, Homo sapiens, UniProt O75914)
Sequence of UniProt O75914 (whole entry, looked up): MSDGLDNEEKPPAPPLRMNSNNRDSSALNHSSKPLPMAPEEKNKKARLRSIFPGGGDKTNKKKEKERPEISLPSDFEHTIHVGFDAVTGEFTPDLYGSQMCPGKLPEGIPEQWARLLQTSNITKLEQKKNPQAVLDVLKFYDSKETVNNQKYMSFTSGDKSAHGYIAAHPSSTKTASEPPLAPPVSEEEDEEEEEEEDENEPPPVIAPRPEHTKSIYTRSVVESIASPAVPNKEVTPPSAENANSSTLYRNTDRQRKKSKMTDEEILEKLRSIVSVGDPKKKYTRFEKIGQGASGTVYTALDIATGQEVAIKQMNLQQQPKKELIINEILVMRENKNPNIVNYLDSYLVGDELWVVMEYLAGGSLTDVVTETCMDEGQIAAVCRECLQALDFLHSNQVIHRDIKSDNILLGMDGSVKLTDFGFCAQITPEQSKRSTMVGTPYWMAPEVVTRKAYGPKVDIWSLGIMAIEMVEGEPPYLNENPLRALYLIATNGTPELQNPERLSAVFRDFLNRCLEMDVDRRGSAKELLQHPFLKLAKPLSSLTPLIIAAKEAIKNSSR
COc1cc2nccc(Oc3ccc(NC(=S)NC(=O)c4ccccc4C)cc3)c2cc1OC: 99.7%
N#CC(C#N)=C(N)/C(C#N)=C/c1ccc(O)cc1: 98.4%
O=c1c2ccccc2[nH]c(=S)n1CCN1CCC(=C(c2ccc(F)cc2)c2ccc(F)cc2)CC1: 94.6%
O=S(=O)(c1cccc2cnccc12)N1CCCNCC1: 103%
O=C(O)c1ccc2c3c1cccc3c(=O)n1c3ccccc3nc21: 97.6%
CCOC(=O)c1c(C)[nH]c(/C=C2\C(=O)Nc3ccccc32)c1C: 99.1%
Cn1sc(=O)n(Cc2ccccc2)c1=O: 100%
OCC(O)CCON=C1C(c2c(O)[nH]c3ccccc23)=Nc2ccccc21 (centres unmarked): 73.8%
Cc1cccc(-c2[nH]c(C(C)(C)C)nc2-c2ccc3c(c2)OCO3)n1: 95.9%
Nc1[nH]nc2nc3ccccc3nc12: 98.3%
O=C1NC(=O)C(c2cn(CCCO)c3ncccc23)=C1c1cnccn1: 92.8%
C#Cc1cccc(Nc2ncnc3cc(OCCOC)c(OCCOC)cc23)c1: 106%
Cc1ccc(NC(=O)c2ccc(CN3CCN(C)CC3)cc2)cc1Nc1nc(-c2cccnc2)cs1: 106%
Cn1c2ccccc2c2c3c(c4c5ccccc5n(CCC#N)c4c21)CNC3=O: 122%
CO[C@H]1C[C@@H]2CC[C@@H](C)[C@@](O)(O2)C(=O)C(=O)N2CCCC[C@H]2C(=O)O[C@H]([C@H](C)C[C@@H]2CC[C@@H](O)[C@H](OC)C2)CC(=O)[C@H](C)/C=C(\C)[C@@H](O)[C@@H](OC)C(=O)[C@H](C)C[C@H](C)/C=C/C=C/C=C/1C: 102%

Set 4 — cell line: HuT78; tested at: 2 µM; time: 48 h; relative to: untreated; endpoint: viability
COc1ccc2c(c1)c(C1=C(c3c[nH]c4ccccc34)C(=O)NC1=O)cn2CCCN(C)C: 126%
CNC(=O)c1cc(Oc2ccc(NC(=O)Nc3cc(C(C)(C)C)nn3-c3ccc4ncccc4c3)c(F)c2)ccn1: 55.8%
COc1cccc(-n2c(=O)[nH]c3cc(Cl)n(-c4ccc(-c5cccc(OC)c5O)cc4)c3c2=O)c1: 116%
COc1cc(OC)c(/C=C/S(=O)(=O)Cc2ccc(OC)c(NCC(=O)O)c2)c(OC)c1: 30.9%
CNC(=O)c1c(F)cccc1Nc1nc(Nc2cc3c(ccn3C(=O)CN(C)C)cc2OC)nc2[nH]ccc12: 96.9%
O=C1NC(=O)C(=Cc2ccc(-c3ccc(F)cc3)o2)S1 (stereo in doubt): 149%

Some of these lines once more (set 4):
COc1ccc2c(c1)c(C1=C(c3c[nH]c4ccccc34)C(=O)NC1=O)cn2CCCN(C)C: 126%
CNC(=O)c1cc(Oc2ccc(NC(=O)Nc3cc(C(C)(C)C)nn3-c3ccc4ncccc4c3)c(F)c2)ccn1: 55.8%
